Experimental data pooled from the literature.
Lines come from different studies, so protocols differ. Numbers after ± are the reported error.

SMILES	cell line	assay	conditions	how to read	endpoint	value
COc1c(C)cc2c(c1OC)OCO2	HCT-116	cell growth or viability	72 h		GI50	> 250000 nM
CC(C)CC(O)(CC(C)C)c1cn(C(=O)N2CCCC2)nn1	mouse T-cells	N-terminal labeled proteins, N-terminal enrichment proteomics, refers to: PAIP2	1 nM, 6 h	relative to: DMSO	SILAC ratio	2.57 ± 0.29
CCN(CC)CCOc1ccc(-c2nnn(Cc3ccc(OC)cc3)c2N)cc1	primary human vestibular schwannoma		5 µM, 7 days		S100B-positive cell count	decreased
CC12OOC(C)(OO1)C2CCC(=O)NCCCNc1ccnc2cc(Cl)ccc12 (stereo not drawn)	HL-60	cell growth or viability, resazurin	10 µM, 48 h		inhibition	67.4%
COc1ccc2c(c1)C(=C1Nc3ccccc3C1=NOCC(O)CO)C(=O)N2 (stereo not drawn)	PANC-1 and MIA PaCa-2	Western blot, refers to: survivin	concentration not given, 24 h		protein level	decreased
C[C@H]1C(OCCCCCCCCC[P+](c2ccccc2)(c2ccccc2)c2ccccc2)O[C@@H]2O[C@@]3(C)CCC4[C@H](C)CCC1[C@]42OO3 (stereo partly drawn)	T24	MTT	72 h	relative to: HUVEC IC50 over T24 IC50	selectivity index	2.23
CCCCCCCC(=O)SCC/C=C/[C@@H]1CC(=O)NCc2cccc(n2)C2=N[C@@](C)(CS2)C(=O)N[C@@H](C(C)C)C(=O)O1	SW-620	sub-G1 accumulation, propidium iodide flow cytometry	24 h		effective concentration	> 10 nM
CC(=O)Oc1ccc(/C=C/C(=O)Nc2nc(=O)n([C@@H]3O[C@H](C)[C@@H](OC(C)=O)[C@H]3OC(C)=O)cc2F)cc1	ASPC1	cell viability, MTT		relative to: NHDF fibroblasts over ASPC1	selectivity index	1.69
CC[C@H](C)[C@H](NC(=O)[C@H](Cc1ccccc1)NC(=O)[C@H](CC(=O)O)NC(=O)[C@H](CCCCN)NC(=O)[C@H](C)NC(=O)[C@H](CCCCN)NC(=O)[C@H](CC(N)=O)NC(=O)[C@H](CC(C)C)NC(=O)[C@H](Cc1c[nH]c2ccccc12)NC(=O)[C@H](CCC(=O)O)NC(=O)[C@H](CCCCN)NC(=O)[C@@H](NC(=O)CN)[C@@H](C)O)C(=O)N[C@@H](CCCCN)C(=O)N[C@@H](CCC(=O)O)C(=O)N[C@@H](CCCCN)C(=O)NCC(=O)N[C@@H](CC(C)C)C(=O)NCC(=O)N[C@@H](CCSC)C(=O)N[C@@H](CC(C)C)C(=O)N[C@@H](CO)C(=O)N[C@@H](C)C(=O)N[C@@H](C)C(=O)N[C@@H](C)C(=O)N[C@@H](CC(N)=O)C(=O)N[C@@H](C)C(=O)N[C@@H](C)C(=O)N[C@@H](CC(C)C)C(=O)N[C@@H](CC(N)=O)C(=O)O	mouse DRG neurons		10 µM, 90 s		intracellular calcium increase	inactive
CC(=O)N1CCCC[C@H]1C(=O)NC(C)(C)C(=O)N1CCCC[C@H]1C(=O)NC(C)(C)C(=O)NC(C)(C)C(=O)N[C@@H](CC(C)C)C(=O)N[C@H](C)CC(=O)NCC(=O)NC(C)(C)C(=O)NC(C)(C)C(=O)N1CCCC[C@H]1C(=O)NC(C)(C)C(=O)NCC(=O)N[C@@H](CC(C)C)C(=O)NC(C)(C)C(=O)N[C@@H](CC(C)C)C[N+]1=C2CCCN2CCC1	39 cancer cell lines		48 h, mean over panel		GI50	2950 nM
O=C(O)CCC(NP(=O)(O)OCCC[C@@H](NC(=O)CCC(NC(=O)CCCCCNC(=O)CCCCCNC(=O)c1ccc([18F])cc1)C(=O)O)C(=O)O)C(=O)O (stereo partly drawn)	CWR22Rv1		1 h		internalized fraction	84.9%
O=[N+]([O-])c1ccc(Sc2nnc[nH]2)c2nonc12	Ramos	LFQ mass spectrometry	10 µM, 8 h		overlap with Myc targets	15.3%

For quick reference, copied from above:
SMILES	cell line	assay	conditions	how to read	endpoint	value
O=[N+]([O-])c1ccc(Sc2nnc[nH]2)c2nonc12	Ramos	LFQ mass spectrometry	10 µM, 8 h		overlap with Myc targets	15.3%
